Experimental data from different studies.
Organism: Klebsiella pneumoniae

SMILES | assay | test system | setting | MIC
CC[C@H](C)[C@H](NC(=O)CNC(=O)[C@H](CC(=O)O)NC(=O)[C@H](CCCNC(=N)N)NC(=O)[C@@H](NC(=O)[C@H](CC(N)=O)NC(=O)[C@H](CCCNC(=N)N)NC(=O)CNC(=O)[C@@H](NC(=O)[C@H](CCCCN)NC(=O)[C@H](CCC(=O)O)NC(=O)[C@@H](NC(=O)[C@H](CCCCN)NC(=O)[C@H](CCCCN)NC(=O)[C@H](Cc1ccccc1)NC(=O)[C@@H](NC(=O)[C@H](CCCCN)NC(=O)[C@H](Cc1c[nH]c2ccccc12)NC(=O)[C@@H](N)CCCNC(=N)N)[C@@H](C)CC)[C@@H](C)CC)C(C)C)C(C)C)C(=O)N[C@H](C(=O)N[C@@H](CCCCN)C(=O)N[C@@H](C)C(=O)NCC(=O)N1CCC[C@H]1C(=O)N[C@@H](C)C(=O)N[C@H](C(=O)N[C@@H](C)C(=O)N[C@H](C(=O)N[C@H](C(=O)NCC(=O)N[C@@H](CCC(N)=O)C(=O)N[C@@H](C)C(=O)N[C@@H](C)C(=O)N[C@H](C(=O)N[C@H](C(=O)N[C@H](C(=O)N[C@@H](CCCCN)C(N)=O)C(C)C)C(C)C)[C@@H](C)O)C(C)C)C(C)C)C(C)C)[C@@H](C)CC |  | NCCP 15782 carbapenem-resistant |  | 2 µM
CC[C@@H](C)[C@@H](N)C(=O)N[C@@H](C(=O)N[C@H](Cc1ccc(O)cc1)C(=O)N[C@@H](C(=O)N[C@H](CCN)C(=O)N[C@H](CC(C)C)C(=O)N[C@H](CO)C(=O)N[C@H](CCN)C(=O)N[C@@H](C(=O)N[C@H](CCN)C(=O)N[C@H](Cc1c[nH]cn1)C(=O)N[C@H](CCN)C(=O)N[C@H](C)C(=O)N[C@H](CCN)C(=O)N[C@H](CCN)C(N)=O)[C@H](C)CC)[C@H](C)CC)[C@H](C)CC | broth microdilution | CDC 0004, Mueller-Hinton broth |  | 4 µg/mL
CS(=O)(=O)Nc1ncn(-c2cc(F)c(COc3ccc(OS(=O)(=O)F)cc3)c(F)c2)n1 |  |  |  | > 50 µM
CN(C)CCCNc1nc(Cl)c2c(c1O)C(=O)C1=C(O)[C@]3(O)C(=O)C(C(N)=O)=C(O)[C@@H](N(C)C)[C@@H]3C[C@@H]1C2.Cl |  | tet(A)-carrying |  | > 32 µg/mL
CCN1CCN(C(=O)N[C@@H](C(=O)N[C@@H]2C(=O)N3[C@@H]2SC(C)(C)[C@@H]3C(=O)O)c2ccccc2)C(=O)C1=O | broth microdilution | ATCC 43816 acrAB overexpressor |  | 4 µg/mL
CC[C@H](C)[C@H](NC(=O)[C@H](CC(C)C)NC(=O)[C@@H](NC(=O)[C@@H](NC(=O)[C@@H](NC(=O)[C@H](CCCNC(=N)N)NC(=O)[C@H](CCCNC(=N)N)NC(=O)[C@H](CCCNC(=N)N)NC(=O)[C@@H](N)CCCNC(=N)N)C(C)C)[C@@H](C)CC)[C@@H](C)CC)C(=O)N[C@@H](CO)C(=O)N[C@@H](CC(C)C)C(=O)N[C@@H](CCCNC(=N)N)C(=O)N[C@@H](CCCNC(=N)N)C(=O)N[C@@H](CCCNC(=N)N)C(=O)N[C@@H](CCCNC(=N)N)C(=O)N[C@@H](Cc1ccccc1)C(=O)N[C@@H](CO)C(=O)N[C@@H](C)C(=O)N[C@@H](Cc1ccc(O)cc1)C(N)=O | broth microdilution | ATCC 13883 | highest value reported | 2 µM
CC[C@H](C)[C@H](NC(=O)[C@H](Cc1ccc(O)cc1)NC(=O)[C@@H](NC(=O)[C@H](Cc1c[nH]c2ccccc12)NC(=O)[C@@H]1CCCN1C(=O)[C@@H](NC(=O)[C@H](C)N)[C@@H](C)CC)[C@@H](C)CC)C(=O)N[C@@H](Cc1ccc(O)cc1)C(=O)N[C@@H](CCCNC(=N)N)C(=O)N[C@@H](CC(C)C)C(=O)N[C@@H](CC(C)C)C(=O)N[C@@H](CCCNC(=N)N)C(=O)N[C@@H](CCCCN)C(=O)NCC(=O)O | broth microdilution | ATCC 700603 | 18 h, 37 °C | 15 µM
CC[C@H](C)[C@H](NC(=O)[C@H](CCCCN)NC(=O)[C@H](CCCCN)NC(=O)[C@H](Cc1ccccc1)NC(=O)[C@@H](NC(=O)[C@@H](NC(=O)[C@H](CCCNC(=N)N)NC(=O)[C@H](Cc1ccccc1)NC(=O)[C@@H](NC(=O)[C@H](CCCCN)NC(=O)[C@H](CCCCN)NC(=O)[C@@H](N)CCSC)[C@@H](C)CC)C(C)C)[C@@H](C)CC)C(=O)N[C@@H](CC(C)C)C(=O)N[C@@H](CCCCN)C(=O)N[C@@H](CCCNC(=N)N)C(=O)N[C@@H](CC(C)C)C(=O)N[C@H](C(=O)N[C@H](C(=O)O)C(C)C)[C@@H](C)CC |  | ATCC 700603 | 16 to 18 h | 16 µg/mL
Cc1ncc(O)c2c1C[C@H]1C[C@H]3[C@H](N(C)C)C(O)=C(C(N)=O)C(=O)[C@@]3(O)C(O)=C1C2=O.Cl.Cl |  | tet(A)-carrying |  | > 32 µg/mL
CC[C@H](C)[C@H](N)C(=O)N[C@@H](CC(C)C)C(=O)NCC(=O)N[C@H](CCCNC(=N)N)C(=O)N[C@H](C(=O)N[C@@H](Cc1ccccc1)C(=O)N[C@@H](CCCCN)C(=O)NCC(=O)N[C@H](C(=O)N[C@@H](CCCCN)C(=O)N[C@@H](CC(=O)O)C(=O)N[C@H](C(=O)N[C@@H](CC(C)C)C(N)=O)[C@@H](C)CC)[C@@H](C)CC)[C@@H](C)CC | broth microdilution | ATCC 27736, Mueller-Hinton broth | 16 h, 37 °C | > 50 µM
C[C@@H](O)[C@H]1C(=O)N2C(C(=O)O)=C(SCCN=CN)C[C@H]12 |  | KPC-2 parental strain K2(0787) |  | 128 µg/mL
COc1ccc2ccc(O)c(/C=N/[C@H]3CCCC[C@H]3/N=C/c3ccc(-c4ccccc4)cc3O)c2c1 | bacterial growth, broth microdilution | carbapenem-resistant clinical isolate |  | > 40 µM
CC[C@H](C)[C@H](NC(=O)[C@H](CCCNC(=N)N)NC(=O)[C@H](CCCNC(=N)N)NC(=O)[C@@H](N)CCCNC(=N)N)C(=O)N[C@@H](CO)C(=O)N[C@@H](Cc1ccccc1)C(=O)N[C@@H](CC(C)C)C(=O)NCC(=O)N[C@@H](CO)C(=O)N[C@@H](CCCCN)C(=O)N[C@H](C(=O)N[C@H](C(=O)N[C@H](C(=O)N[C@@H](CC(C)C)C(=O)N[C@@H](CC(C)C)C(=O)N[C@@H](CCCCN)C(=O)N[C@@H](CCCNC(=N)N)C(=O)N[C@@H](CCCNC(=N)N)C(=O)N[C@@H](CCCNC(=N)N)C(=O)N[C@@H](CCCNC(=N)N)C(N)=O)C(C)C)C(C)C)C(C)C | broth microdilution | ATCC 13883 | highest value reported | 16 µM
CC(=O)N[C@@H](CCCCN)C(=O)N[C@@H](CC(C)C)C(=O)N[C@@H](CC(C)C)C(=O)N[C@@H](CCCCN)C(=O)N[C@@H](CC(C)C)C(=O)N[C@@H](CC(C)C)C(=O)N[C@@H](CCCCN)C(=O)N[C@@H](CCCCN)C(=O)N1CCC[C@H]1C(=O)N[C@@H](CC(C)C)C(=O)N[C@@H](CCCCN)C(=O)N[C@@H](CC(C)C)C(=O)N[C@@H](CC(C)C)C(=O)N[C@@H](CCCCN)C(=O)N[C@@H](CCCCN)C(N)=O | broth microdilution | ATCC 700603 | 18 h, 37 °C, compound alone | > 80 µM
C[C@@H](O)[C@H]1C(=O)N2C(C(=O)O)=C(S[C@@H]3CN[C@H](C(=O)N(C)C)C3)[C@H](C)[C@H]12 | broth microdilution | ATCC 43816 acrAB overexpressor |  | < 0.5 µg/mL
CC(=O)N[C@@H](CCCCN)C(=O)N[C@@H](CCCCN)C(=O)N[C@@H](CC(C)C)C(=O)N[C@@H](CC(C)C)C(=O)N[C@@H](CCCCN)C(=O)N[C@@H](CC(C)C)C(=O)N[C@@H](C)C(=O)N[C@@H](CCCCN)C(=O)N[C@@H](CCCCN)C(=O)N1CCC[C@H]1C(=O)N[C@@H](CC(C)C)C(=O)N[C@@H](CCCCN)C(=O)N[C@@H](CC(C)C)C(=O)N[C@@H](CC(C)C)C(=O)N[C@@H](CCCCN)C(N)=O | broth microdilution | ATCC 700603 | 18 h, 37 °C, compound alone | > 80 µM
CC(C)Nc1nc(Cl)c2c(c1O)C(=O)C1=C(O)[C@]3(O)C(=O)C(C(N)=O)=C(O)[C@@H](N(C)C)[C@@H]3C[C@@H]1C2.Cl.Cl.Cl |  | tet(A)-carrying |  | > 32 µg/mL
Cc1cc(NS(=O)(=O)c2ccc(N)cc2)no1 | broth microdilution | ATCC 43816 acrAB overexpressor |  | 128 µg/mL
CC[C@H](C)[C@H](NC(=O)[C@H](CC(C)C)NC(=O)[C@H](CCCCN)NC(=O)[C@@H](NC(=O)[C@H](C)NC(=O)[C@H](CCC(=O)O)NC(=O)[C@H](Cc1c[nH]cn1)NC(=O)[C@@H](NC(=O)[C@H](CCCCN)NC(=O)[C@H](CCC(N)=O)NC(=O)[C@H](Cc1ccccc1)NC(=O)[C@@H](NC(=O)[C@H](CCCCN)NC(=O)[C@@H](N)CCCCN)C(C)C)[C@@H](C)CC)[C@@H](C)CC)C(N)=O | CLSI broth microdilution | ATCC 13883 | 18 h, 37 °C | 128 µM
C[C@H]1COc2c(N3CCN(C)CC3)c(F)cc3c(=O)c(C(=O)O)cn1c23 | agar dilution | 2146 NDM-1 |  | 128 µg/mL
NCCCC1CN(c2ccc3c(n2)NC(=O)CO3)C(=O)O1 (stereo not shown) |  | ATCC 13883 |  | 160 µg/mL
CN(C)c1cc(NC(=O)CNC(C)(C)C)c(O)c2c1C[C@H]1C[C@H]3[C@H](N(C)C)C(O)=C(C(N)=O)C(=O)[C@@]3(O)C(O)=C1C2=O | broth microdilution | KPC-127 producing |  | 2 µg/mL
CC[C@H](C)[C@H](N)C(=O)N[C@@H](CCCNC(=N)N)C(=O)N[C@H](C(=O)N[C@@H](Cc1c[nH]c2ccccc12)C(=O)N[C@@H](Cc1c[nH]c2ccccc12)C(=O)N[C@@H](CCCCN)C(=O)N[C@H](C(=O)N[C@H](C(=O)N[C@@H](CCCNC(=N)N)C(=O)N[C@@H](CCCCN)C(=O)N[C@@H](Cc1c[nH]c2ccccc12)C(=O)N[C@@H](CCCCN)C(=O)N[C@@H](C)C(=O)N[C@H](C(=O)N[C@@H](Cc1c[nH]c2ccccc12)C(=O)N[C@@H](Cc1c[nH]cn1)C(N)=O)[C@@H](C)CC)C(C)C)[C@@H](C)CC)C(C)C | broth dilution | ATCC 700603 |  | 50 µM
Cc1nc(Cl)c2c(c1O)C(=O)C1=C(O)[C@]3(O)C(=O)C(C(N)=O)=C(O)[C@@H](N(C)C)[C@@H]3C[C@@H]1C2.Cl |  | tet(A)-carrying |  | > 32 µg/mL
CC(=O)N[C@@H](CCCCN)C(=O)N[C@@H](CCCCN)C(=O)N[C@@H](C)C(=O)N[C@@H](CC(C)C)C(=O)N[C@@H](CCCCN)C(=O)N[C@@H](CC(C)C)C(=O)N[C@@H](CC(C)C)C(=O)N[C@@H](CCCCN)C(=O)N[C@@H](CCCCN)C(=O)N1CCC[C@H]1C(=O)N[C@@H](CC(C)C)C(=O)N[C@@H](CCCCN)C(=O)N[C@@H](CC(C)C)C(=O)N[C@@H](CC(C)C)C(=O)N[C@@H](CCCCN)C(N)=O | broth microdilution | ATCC 700603 | 18 h, 37 °C, compound alone | > 80 µM

Repeated from above:
SMILES | assay | test system | setting | MIC
Cc1nc(Cl)c2c(c1O)C(=O)C1=C(O)[C@]3(O)C(=O)C(C(N)=O)=C(O)[C@@H](N(C)C)[C@@H]3C[C@@H]1C2.Cl |  | tet(A)-carrying |  | > 32 µg/mL
CC[C@H](C)[C@H](NC(=O)[C@H](CCCCN)NC(=O)[C@H](CCCCN)NC(=O)[C@H](Cc1ccccc1)NC(=O)[C@@H](NC(=O)[C@@H](NC(=O)[C@H](CCCNC(=N)N)NC(=O)[C@H](Cc1ccccc1)NC(=O)[C@@H](NC(=O)[C@H](CCCCN)NC(=O)[C@H](CCCCN)NC(=O)[C@@H](N)CCSC)[C@@H](C)CC)C(C)C)[C@@H](C)CC)C(=O)N[C@@H](CC(C)C)C(=O)N[C@@H](CCCCN)C(=O)N[C@@H](CCCNC(=N)N)C(=O)N[C@@H](CC(C)C)C(=O)N[C@H](C(=O)N[C@H](C(=O)O)C(C)C)[C@@H](C)CC |  | ATCC 700603 | 16 to 18 h | 16 µg/mL
CN(C)CCCNc1nc(Cl)c2c(c1O)C(=O)C1=C(O)[C@]3(O)C(=O)C(C(N)=O)=C(O)[C@@H](N(C)C)[C@@H]3C[C@@H]1C2.Cl |  | tet(A)-carrying |  | > 32 µg/mL
CC[C@H](C)[C@H](N)C(=O)N[C@@H](CCCNC(=N)N)C(=O)N[C@H](C(=O)N[C@@H](Cc1c[nH]c2ccccc12)C(=O)N[C@@H](Cc1c[nH]c2ccccc12)C(=O)N[C@@H](CCCCN)C(=O)N[C@H](C(=O)N[C@H](C(=O)N[C@@H](CCCNC(=N)N)C(=O)N[C@@H](CCCCN)C(=O)N[C@@H](Cc1c[nH]c2ccccc12)C(=O)N[C@@H](CCCCN)C(=O)N[C@@H](C)C(=O)N[C@H](C(=O)N[C@@H](Cc1c[nH]c2ccccc12)C(=O)N[C@@H](Cc1c[nH]cn1)C(N)=O)[C@@H](C)CC)C(C)C)[C@@H](C)CC)C(C)C | broth dilution | ATCC 700603 |  | 50 µM
